Results collected from several papers.
Protocols differ between the studies behind these lines. ± gives the spread as reported.
MAP2K1: Dual specificity mitogen-activated protein kinase kinase 1 (MAP2K1, Homo sapiens, UniProt Q02750)

Structure (SMILES)	target	assay	system	conditions	how to read	quantity	value
CC/C(=N\NC(=O)NCc1cccc(O)c1)c1ccc(O)c(C)c1O	MAP2K1	kinase activity	–	0.1 µM	–	inhibition	2.9%
COc1cc(-c2cncc3c2CN(C)Cc2cc(N4CCNCC4)ccc2-3)cc(OC)c1OC	MAP2K1	kinase activity	–	1 µM, human enzyme, together with: ATP 10 µM	reference: DMSO control	remaining activity	88%
O=C1NC(=O)/C(=C/c2ccc(-c3ccc(F)cc3O)o2)S1	MAP2K1	enzyme activity	–	10 µM	–	remaining activity	70%
C=CC(=O)N1CCC(COCC(=O)N2CCN(c3nc(-c4cnc(N)nc4C(F)F)nc(N4CCOC[C@@H]4C)n3)CC2)CC1	MAP2K1	KINOMEscan	–	1 µM	–	remaining binding	99%
c1cnc2ccc(Nc3nc(NC4CC4)c4nc[nH]c4n3)cc2c1	MAP2K1	kinase activity, inhibitor, SelectScreen kinase profiling	–	1 µM	reference: control	remaining activity	74%
C=CC(=O)N1CCC[C@@H](n2nc(-c3ccc(Oc4ccccc4)cc3)c3c(N)ncnc32)C1	MAP2K1	kinase activity, inhibitor, HotSpot radiometric	–	100 nM, together with: ATP 10 µM	–	remaining activity	88.9 ± 0.8%
Cc1cc(Nc2cc(N3CCN(C)CC3)nc(Sc3ccc(NC(=O)C4CC4)cc3)n2)[nH]n1	MAP2K1	kinase activity, KinaseProfiler	–	0.03 µM, species human	reference: control	remaining activity	103%
CNS(=O)(=O)Nc1nccc(Cc2c(C)c3ccc(Oc4ncccn4)cc3oc2=O)c1F	MAP2K1 (Homo sapiens, UniProt Q02750, S218E/S222E)	ERK2 activation, inhibitor, IMAP FP	–	concentration not given	–	inhibition	inhibited
CNc1ncc2c(/C=C/C(=O)N3CCC(OC)CC3)nn(Cc3cccc(C(F)(F)F)c3)c2n1	MAP2K1	kinase activity, inhibitor	–	1 µM	reference: untreated control	remaining activity	95%
CC[C@@H]1[C@H](F)C(=O)N[C@@H]1COc1nccc2cc(C(N)=O)c(OC)cc12	MAP2K1	ATP-site probe binding, ActivX profiling	THP-1 cell lysate	0.04 mM, Lys2 site	–	inhibition	5.6%
COc1ccc(F)cc1C(=O)NCc1ccc(-c2nn([C@@H](C)C(F)(F)F)c(N)c2C(N)=O)cc1	MAP2K1	kinase activity, inhibitor, HotSpot radiometric	–	100 nM, together with: ATP 10 µM	–	remaining activity	69.6 ± 0.2%
COc1cc(F)ccc1-c1ncnc(Nc2cccc(C[S@](C)(=N)=O)c2)n1	MAP2K1	kinase activity	–	10 µM, together with: 10 µM ATP	–	remaining activity	118%
CC#CC(=O)N1CCC[C@H]1c1nc(-c2ccc(C(=O)Nc3ccccn3)cc2)c2c(N)nccn12	MAP2K1	kinase activity, inhibitor, HotSpot radiometric	–	100 nM, together with: ATP 10 µM	–	remaining activity	97.7 ± 2.4%
[2H]c1cc(C)c(NC(=O)c2cnc(Nc3cc(N4CCCCC4)nc(C)n3)s2)c(Cl)c1	MAP2K1	–	–	0.01 µM	–	inhibition	< 30%
